Measurements collected from several papers.
A part holds a random share of what one study measured. Changes are numbered by the printed parent chain.

Study 1 — method: RNA Bind-n-Seq; molecule type: RNA; sample: in vitro; tested at: not given; relative to: input RNA pool; reading: higher = stronger binding; endpoint: bound/input enrichment
Target: RING finger protein unkempt homolog, zinc fingers 1-6, GST-SBP tag (UNK, Homo sapiens, UniProt Q9C0B0, residues 30-357)
Sequence of UniProt Q9C0B0 (30-357, looked up): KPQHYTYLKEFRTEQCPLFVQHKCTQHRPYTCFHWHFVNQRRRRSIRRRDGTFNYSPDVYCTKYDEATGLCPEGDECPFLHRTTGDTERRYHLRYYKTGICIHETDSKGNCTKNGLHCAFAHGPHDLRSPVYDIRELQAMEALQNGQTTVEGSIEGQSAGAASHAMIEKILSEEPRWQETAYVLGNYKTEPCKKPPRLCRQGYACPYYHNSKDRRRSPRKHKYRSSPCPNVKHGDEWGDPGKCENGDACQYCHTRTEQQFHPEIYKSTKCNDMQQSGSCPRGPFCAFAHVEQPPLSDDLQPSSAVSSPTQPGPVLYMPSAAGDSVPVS
Setting: RNA with constant flanks, human-mouse chimeric sites, ends assumed
Shared flanks, not repeated: GGGAGUUCUACAGUCCGACGAUC … CAACAGAGGAUUGAGCAUCA
AAUAGAGGAUUAUAUUCCCAAAGUGCUGGGAGUAAAGGUGUGGCCACCACACCUAACUUGAUGGAUAUAUAUUUUUUUUAAUAUGAAUCUUCCUGUUCGUCCAGGGAAGAAAGAUUUGUU: 1.73 ratio
CCAAUUGUGGAGCAGUACUUGAAGACAAAGAAAAAUUCUAAUAAUUUAAUCAUCAAGUACAUUAGCUGCCGCCUGCUGACACUCAUCAUUAUACUGUUGGCAUGUAUCUACUUGAGCUAU: 0.22 ratio
AACGUGGAGUUGAGUUCGCUGGCCCGGCUUCCCAGCUUGAAUAAACUUCGAAAAUUGGAACUUAGUGACAAUAUAAUUUCUGGAGGCUUGGAAGUCCUGGCAGAGAAAUGUCCAAAUCUU: 0.394 ratio
AAAGAACCUCUCUCUGAUGAAGAUGAGGAAGACAAUGAUGAUGUUGAACCCAUUUCUGAAUUUAGAUUUGUGCCCAGUGAUAAGUCAGCAUUGGAGGCGAUGUUCACAGCAAUGUGUGAG: 1.46 ratio
UGGCGCCUGCGCUCCCCACUCGUGUUUUUAAGUGUAUUUUUAUAAGAUACAUGUAUUUACAAUUGAGCUUUUGUUACUAUAAUACUGAAUGCUACUGGAGAUUAUGAAAAAUGUUUCAAU: 0.161 ratio
ACAGUUAUAUUGUUGAGUUUCAUUUUCUUGUAUGUUUGUAGUGUCUGCUUGCCUGUGACUUCUGGUAAAAUAAGACUAGCCUUUGAAAAUAUUUUAGCAUGGUAUUUAACAUUUUCUAAA: 4.49 ratio

Study 2 — method: protein-binding microarray; molecule type: double-stranded DNA, one strand shown; sample: in vitro; tested at: 940 nM top; setting: 60-bp whole probe; together with: salmon DNA 0.4 mg/ml; relative to: random background probes; reading: higher = stronger binding; endpoint: fitted relative affinity; shared flanks, not repeated: GCCTAGCAC … GTCTTGATTCGCTTGACGCTGCTG
Target: Interferon regulatory factor 5, full length, phosphomimetic (IRF5, Homo sapiens, UniProt Q13568-2, residues 1-514, S451D/S453D/S456D/S462D)
TCACTTTTTGCACTCTCACTGTGCTAG: 1.87 z-score
TTAGGTTTCCTTTCCCCTTAGTGCTAG: 2.34 z-score
TTAGGTAACGGGTATCGGTTAGTGCTA: 2.89 z-score
TTAGGACTGGAGACTGGGTTAGTGCTA: -0.388 z-score
GCTTCCTCACCTGATGCCTCGTGCTAG: 0.134 z-score

Study 3 — target: CRIPT, C-terminal peptide; method: DHFR complementation, deep sequencing; sample: yeast; relative to: wild type; reading: higher = weaker binding; endpoint: binding free energy change
Setting: single substitutions, model-inferred values
Starting sequence: ERBIN, PDZ domain 1 (human); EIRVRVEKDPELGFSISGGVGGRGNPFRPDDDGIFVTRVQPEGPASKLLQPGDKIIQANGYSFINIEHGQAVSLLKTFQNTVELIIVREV; partner TKNYKQTSV
G33Q: 1.13 kcal/mol
S17H: 1.31 kcal/mol
V72F: 1.47 kcal/mol

Single results of other studies
PhoQ, residues 284 288 289 292 302 303 ALVSVA — fold induction (PhoP, residues 12 14 15 18 19 NIMAP (Escherichia coli, UniProt P23836); Sort-seq, refers to: YFP reporter; E. coli; PhoQ-PhoP variant library, together with: 10 µM Mg2+; relative to: high Mg2+ state, higher = stronger signaling): 0.796

Some of these lines once more (study 1):
AAAGAACCUCUCUCUGAUGAAGAUGAGGAAGACAAUGAUGAUGUUGAACCCAUUUCUGAAUUUAGAUUUGUGCCCAGUGAUAAGUCAGCAUUGGAGGCGAUGUUCACAGCAAUGUGUGAG: 1.46 ratio
ACAGUUAUAUUGUUGAGUUUCAUUUUCUUGUAUGUUUGUAGUGUCUGCUUGCCUGUGACUUCUGGUAAAAUAAGACUAGCCUUUGAAAAUAUUUUAGCAUGGUAUUUAACAUUUUCUAAA: 4.49 ratio
